Measurements from different studies.
Every numbered part comes from another study and shows a few of its results, in no order. “And” joins repeats or separate records; there may be more than shown. In brackets after ≈: the same amount, converted by molar mass.

Series 1
Structure (SMILES): Cn1cc(-c2cccc(CN3CCC4(CC3)COc3c4ccc4c3CN([C@H]3CCC(=O)NC3=O)C4=O)c2)cn1
Target: Voltage-gated inwardly rectifying potassium channel KCNH2 (KCNH2, Homo sapiens, UniProt Q12809)
UniProt Q12809, sequence (whole entry, looked up): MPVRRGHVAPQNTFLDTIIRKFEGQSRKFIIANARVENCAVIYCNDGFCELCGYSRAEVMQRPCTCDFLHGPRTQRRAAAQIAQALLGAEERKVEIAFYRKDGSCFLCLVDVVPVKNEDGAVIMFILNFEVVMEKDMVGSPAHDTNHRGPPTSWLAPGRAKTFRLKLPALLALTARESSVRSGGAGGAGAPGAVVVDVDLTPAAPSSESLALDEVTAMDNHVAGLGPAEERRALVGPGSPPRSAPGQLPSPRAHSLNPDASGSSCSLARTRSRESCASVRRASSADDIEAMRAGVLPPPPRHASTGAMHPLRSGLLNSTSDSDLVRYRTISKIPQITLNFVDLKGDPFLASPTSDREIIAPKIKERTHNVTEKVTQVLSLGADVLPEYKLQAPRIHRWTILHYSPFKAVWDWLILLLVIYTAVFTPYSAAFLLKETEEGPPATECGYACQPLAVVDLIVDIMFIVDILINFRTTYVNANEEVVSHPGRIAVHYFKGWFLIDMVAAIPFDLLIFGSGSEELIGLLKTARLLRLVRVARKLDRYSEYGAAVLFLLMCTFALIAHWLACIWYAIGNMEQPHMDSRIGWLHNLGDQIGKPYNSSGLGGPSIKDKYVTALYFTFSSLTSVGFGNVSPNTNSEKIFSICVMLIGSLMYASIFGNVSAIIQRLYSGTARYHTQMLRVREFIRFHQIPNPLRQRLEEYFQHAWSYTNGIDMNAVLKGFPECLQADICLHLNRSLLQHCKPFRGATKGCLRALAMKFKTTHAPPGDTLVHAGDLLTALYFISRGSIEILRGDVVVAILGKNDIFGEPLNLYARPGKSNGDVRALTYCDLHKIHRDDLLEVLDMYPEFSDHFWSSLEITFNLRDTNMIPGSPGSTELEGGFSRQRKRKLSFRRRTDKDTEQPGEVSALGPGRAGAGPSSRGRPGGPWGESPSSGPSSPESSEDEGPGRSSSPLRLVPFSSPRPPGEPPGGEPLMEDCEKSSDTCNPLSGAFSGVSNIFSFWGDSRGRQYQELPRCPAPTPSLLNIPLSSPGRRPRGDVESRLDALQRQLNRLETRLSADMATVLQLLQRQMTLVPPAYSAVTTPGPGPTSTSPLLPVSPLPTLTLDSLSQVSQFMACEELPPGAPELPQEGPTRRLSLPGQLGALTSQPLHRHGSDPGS
Method: manual patch clamp
read-out | action | tested at | notes | inhibition
hERG current | – | 30.00 µM | – | 36.8% and 50%
hERG current | – | 32.25 µM | – | 43.4%
potassium current | inhibitor | 9.95 µM | 9.95 | 16.5% and 21.2%
hERG current | – | 3.40 µM | – | 7.94%
hERG current | – | 3.00 µM | – | 7.66% and 8.22%
hERG current | – | 1.00 µM | – | 6% and 0.38%
potassium current | – | 88.62 µM | – | 65.3% and 73.2%
potassium current | inhibitor | 100 µM | nominal concentration, cloudy solution | 69.2%
hERG current | – | 1.28 µM | – | 3.19%
hERG current | – | 10.00 µM | – | 16.5% and 21.2%

Series 2
SMILES: CCCCC[C@@H]1CC(=O)N[C@@H](C(C)C)C(=O)N[C@H](CCCNC(=N)N)C(=O)N[C@@H](CO)C(=O)NCC(=O)N(C)[C@H](Cc2ccccc2)C(=O)N[C@@H](CC(C)C)C(=O)N[C@H](CCCNC(=N)N)C(=O)N[C@@H](CC(N)=O)C(=O)N[C@H](C(C)C)C(=O)N[C@H](Cc2c[nH]c3ccccc23)C(=O)NCCCC(=O)O1
organism | read-out | strain | time | with | MIC [µg/mL]
Staphylococcus aureus | – | USA300 | – | menaquinone 2 µg/mL | 16 (≈ 11 µM)
Staphylococcus aureus | – | USA300 | – | menaquinone 0.0625 µg/mL | 4 (≈ 2.75 µM)
Staphylococcus aureus | – | USA300 | – | menaquinone 16 µg/mL | > 64
Escherichia coli | microbial growth | – | 16 h | – | > 64
Staphylococcus aureus | – | USA300 | – | menaquinone 0.25 µg/mL | 8 (≈ 5.49 µM)

Series 3
Compound: CC(C)(C)n1nc(-c2ccc(Cl)cc2)c2c(N)ncnc21
Cell line: L929
Read-out: necroptosis protection
Method: CCK-8
With: TNF-α-induced
tested at | viability [%]
5 µM | 66
0.156 µM | 36.7
1.25 µM | 56.5
0.007 µM | 14.3

Series 4
Target: Membrane-associated tyrosine- and threonine-specific cdc2-inhibitory kinase (PKMYT1, Homo sapiens, UniProt Q99640)
Read-out: binding
Method: HTRF
Tested at: 12.35 nM
Construct (Q99640 1-499): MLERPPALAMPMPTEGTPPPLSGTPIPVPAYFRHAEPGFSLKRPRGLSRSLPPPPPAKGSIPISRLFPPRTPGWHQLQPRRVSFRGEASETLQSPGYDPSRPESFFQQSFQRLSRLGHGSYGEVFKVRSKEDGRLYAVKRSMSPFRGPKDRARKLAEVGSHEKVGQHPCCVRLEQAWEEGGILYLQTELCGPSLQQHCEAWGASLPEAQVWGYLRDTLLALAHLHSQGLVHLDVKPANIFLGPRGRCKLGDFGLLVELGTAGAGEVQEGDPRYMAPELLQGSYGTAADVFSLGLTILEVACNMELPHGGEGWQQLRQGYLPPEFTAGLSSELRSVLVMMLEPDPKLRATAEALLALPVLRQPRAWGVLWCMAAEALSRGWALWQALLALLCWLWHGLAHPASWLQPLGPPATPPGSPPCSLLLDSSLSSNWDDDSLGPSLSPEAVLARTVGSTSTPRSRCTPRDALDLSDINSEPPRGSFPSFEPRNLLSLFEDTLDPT
Compound | inhibition
Cc1ccc(O)c(C)c1-c1cnc2[nH]c(-c3cnc(N4CCC(CN5CCN(c6ccc7c8c(cccc68)C(=O)N7C6CCC(=O)NC6=O)CC5)CC4)nc3)cc2c1C#N (racemic) | 64.2% and 58.4%
Cc1ccc(O)c(C)c1-c1cnc2[nH]c(-c3cnc(N4CCC(CN5CCN(c6ccc(C(=O)NC7CCC(=O)NC7=O)c(F)c6)CC5)CC4)nc3)cc2c1C#N (racemic) | 84.2% and 82.8%
Cc1ccc(O)c(C)c1-c1cnc2[nH]c(-c3cnc(N4CCC(CN5CCN(c6ccc(N7CCC(=O)NC7=O)cc6F)CC5)CC4)nc3)cc2c1C#N | 85% and 85.7%

For quick reference, copied from above (series 3):
tested at | viability [%]
5 µM | 66
0.156 µM | 36.7
1.25 µM | 56.5
0.007 µM | 14.3
